{"data": "Assay results gathered from unrelated publications", "note": "Protocols differ between the studies behind these lines. ± marks the error that the study gave."}
{"SMILES": "CN[C@@H]1COc2c(S(=O)(=O)NC(=O)Nc3c4c(cc5c3CCC5)CCC4)cnn2C1", "system": "human", "conditions": "oral, 300 mg twice daily, day 7", "half-life [min]": 252}
{"SMILES": "COC(=O)c1ccc2c(c1)NC(=O)/C2=C(\\Nc1ccc(N(C)C(=O)CN2CCN(C)CC2)cc1)c1ccccc1", "system": "healthy human controls matched to Child-Pugh A, plasma", "conditions": "oral, 100 mg single dose, geometric mean", "half-life [min]": 2100}
{"SMILES": "CCN1CCN(Cc2ccc(Nc3ncc(F)c(-c4cc(F)c5nc(CO)n(C(C)C)c5c4)n3)nc2)CC1", "system": "human patients, plasma", "conditions": "oral, 150 mg, single dose, geometric mean", "half-life [min]": 798}
{"SMILES": "CS(=O)(=O)n1cc2c(n1)CN([C@H]1CO[C@H](c3cc(F)ccc3F)[C@@H](N)C1)C2", "system": "healthy male human, plasma", "conditions": "oral, 100 mg single, fasted, geometric mean", "half-life [min]": 2560}
{"SMILES": "CC[C@@H]1C(=O)N(C)c2cnc(Nc3ccc(C(=O)N[C@H]4CC[C@H](N5CCN(CC6CC6)CC5)CC4)cc3OC)nc2N1C(C)C", "system": "human, plasma", "conditions": "intravenous infusion, 350 mg over 2 h, first infusion, geometric mean", "half-life [min]": 7320}
{"SMILES": "CC[C@@]1(O)C(=O)OCc2c1cc1n(c2=O)Cc2cc3c(CN(C)C)c(O)ccc3nc2-1", "system": "human patients", "conditions": "oral, 4 mg, day 15, geometric mean, added: pazopanib 800 mg", "half-life [min]": 292}
{"SMILES": "CCCC(CCC)C(=O)O", "test": "fluorescence polarization immunoassay, refers to: total drug", "system": "human, plasma", "conditions": "oral, 25 mg/kg/day, first dose", "half-life [min]": "660 ± 162"}
{"SMILES": "CCn1c(C(=O)c2cc(C)cc(C#N)c2)c(C(C)C)c(=O)[nH]c1=O", "system": "healthy humans, plasma", "conditions": "oral, 150 mg once daily, 7 days", "half-life [min]": "1550 ± 786"}
{"SMILES": "O=c1[nH]c(=O)c(Cc2cccc(C(F)(F)F)c2)c([C@H]2CC[C@H](c3ccccc3)CC2)[nH]1", "system": "human, fasted, plasma", "conditions": "oral, 1500 mg single dose, geometric mean", "half-life [min]": 1040}
{"SMILES": "O=CC[C@@H](O)[C@H](O)[C@H](O)CO", "test": "HPLC-fluorescence", "system": "human patients, plasma", "conditions": "oral, 45 mg/kg/day, cycle 1", "half-life [min]": "438 ± 96"}
{"SMILES": "Cc1ccc(NC(=O)c2ccc(CN3CCN(C)CC3)cc2)cc1Nc1nccc(-c2cncc(-c3oncc3C)c2)n1", "system": "older healthy human adults, plasma", "conditions": "oral, 250 mg single dose, fed, mean", "half-life [min]": 2320}
{"SMILES": "CC(C)(Sc1ccncc1-c1ccc(C#N)c2ccccc12)C(=O)O", "system": "human", "conditions": "oral, 20 mg, added: febuxostat 40 mg", "half-life [min]": 696}
{"SMILES": "CCCCC1(CCCC)CN(c2ccccc2)c2cc(SC)c(OCC(=O)N[C@@H](C(=O)NCC(=O)O)c3ccccc3)cc2S(=O)(=O)C1", "test": "LC-MS/MS", "system": "human, plasma", "conditions": "oral, 20 mg, single dose, fasted", "half-life [min]": 692}
{"SMILES": "Cc1cccc(C)c1N(CC(=O)Nc1ccc(-c2ncon2)cc1)C(=O)C1CCS(=O)(=O)CC1", "system": "human male, plasma", "conditions": "oral, 400 mg single dose, arithmetic mean, alone", "half-life [min]": 450}
{"SMILES": "CCOc1ccc(Cc2cc([C@]34OC[C@](CO)(O3)[C@@H](O)[C@H](O)[C@H]4O)ccc2Cl)cc1", "system": "human, type 2 diabetes, mild renal impairment, plasma", "conditions": "oral, 15 mg", "half-life [min]": "1550 ± 840"}
{"SMILES": "O=C(O)[C@H](c1ccccc1Cl)N1CCc2sccc2C1", "system": "human patients, CYP3A4 wt/wt, plasma", "conditions": "75 mg clopidogrel daily, day 7, median", "half-life [min]": 431}
{"SMILES": "Cn1cnc2c(F)c(Nc3ccc(Br)cc3Cl)c(C(=O)NOCCO)cc21", "system": "human cancer patients, plasma", "conditions": "oral, 75 mg, cycle 1 day 1", "half-life [min]": "178 ± 53.4"}
{"SMILES": "CNc1nc(Nc2ccc(-n3cnc(C)n3)c(OC)c2)nc2c1CC[C@H]2c1ccc(F)cc1", "system": "healthy humans, both sexes, plasma", "conditions": "oral, 300 mg single dose, high-fat meal", "half-life [min]": 1680}
{"note": "Repeated from above:"}
{"SMILES": "CC(C)(Sc1ccncc1-c1ccc(C#N)c2ccccc12)C(=O)O", "system": "human", "conditions": "oral, 20 mg, added: febuxostat 40 mg", "half-life [min]": 696}
{"SMILES": "CCCCC1(CCCC)CN(c2ccccc2)c2cc(SC)c(OCC(=O)N[C@@H](C(=O)NCC(=O)O)c3ccccc3)cc2S(=O)(=O)C1", "test": "LC-MS/MS", "system": "human, plasma", "conditions": "oral, 20 mg, single dose, fasted", "half-life [min]": 692}
{"SMILES": "Cc1cccc(C)c1N(CC(=O)Nc1ccc(-c2ncon2)cc1)C(=O)C1CCS(=O)(=O)CC1", "system": "human male, plasma", "conditions": "oral, 400 mg single dose, arithmetic mean, alone", "half-life [min]": 450}
